# Published values of several laboratories.
# Every numbered part comes from another study and shows a few of its results, in no order.

# Set 1 — technique: protein binding microarray; form: double-stranded DNA, one strand shown; sample: in vitro; tested at: not given; relative to: not given; reading: higher = stronger binding
# Target: Histone acetyltransferase KAT6A, winged helix 1, GST fusion (KAT6A, Homo sapiens, UniProt Q92794, residues 1-85)
# Setting: 8-mer, flanks averaged, mean of 2 arrays, mostly near background
# Construct (chain): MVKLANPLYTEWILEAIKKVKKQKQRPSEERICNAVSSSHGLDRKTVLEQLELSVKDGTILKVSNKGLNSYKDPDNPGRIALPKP
Strand,E-score
AGGGTAGC,0.0767
TTGGACAA,-0.0909
CTTGCAAC,-0.217
AGGTTCCC,0.0227
CATGACGC,0.256
ACATGACA,-0.137
AGCAGTTA,-0.095
ACATGATA,-0.0527
CAAAGAGC,0.086
TAACGCAA,0.16
AGGCTATC,-0.0422
GGTAAAAC,-0.153
GTAGAGAA,-0.0786
GGCATCTA,-0.00384
GTGTGATA,-0.131
CGTCCCCA,0.0344
TACAAACA,-0.103
GAATATGA,-0.2
ACGGTAAT,0.154
CTGGTTTC,-0.025
AGTTCTTC,0.0402
AGAGGGCT,-0.0481
CCGACGCC,0.414
CTAAGGTA,0.00288

# Set 2 — technique: RNA Bind-n-Seq; form: RNA; sample: in vitro; tested at: 365 nM; relative to: no-protein control; reading: higher = stronger binding
# Target: RNA binding protein fox-1 homolog 2, RRM domain, GST-SBP tag (RBFOX2, Homo sapiens, UniProt O43251-10, residues 100-194)
# Setting: natural RNA segment, single round, ends assumed
# All sequences stand within: GGGAGUUCUACAGUCCGACGAUC … UGGAAUUCUCGGGUGCCAA
# Target sequence (chain): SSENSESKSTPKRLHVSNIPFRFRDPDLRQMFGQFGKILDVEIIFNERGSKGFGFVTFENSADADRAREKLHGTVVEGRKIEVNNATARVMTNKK
Strand,RBNS enrichment (R)
AAGGGUUAAUCCCUCUUUGUUCCAAGCAGAAGCAUUCUGGCAUCCCAGUGAAGAGCUCAGGCCCUCAGGAAGUGUCUGCUGAAUGGAAUGGCCCAGCAUUAGCCCAGUAU,0.344
AAAGAGCCUCAGUCUGACUGAUUUCAAACACUUUUUUUCUCCUGUGUAUUGCUUUUAAGAGAGCCAUCAGUUAGCUAUCAGAAUCUAGGUUGAUGCAUUUUUGUACUUAG,2.48
AGUCUUGCCAACAAGUGCCAAAUAUCUGAGGAACCCAGGAACCCAGGGGAUCCCUUCCCCCAAGCCCGUCAGUAGCGUCAGCUUGGGGCCUCUCGGGACUCCUGUUGUAG,0.298
UUUGUGGAUGGGAGACAGCAGGAUUAGCUUCAGCUUGGGCUGGAGCAGUCAAUAUAGGAUCUCAGGCCAGGCCCGCUUUUCUAGAAUGUGUUUAAUUUUGAGUUUGCUUU,0.901
GAAAGGUUGCGUUUAAUAUAUUUUUUGAACUUUGUAGGACAAAACAUAGCUGGUUAACCUUGAAGUGACUGUUGUACCAUGGUUGUGCACAUGCUUCAGAAUCCUAUGGA,0.336
GCAUCAGGACCUCUCCACCCAGGAUCCUCCAUGCCACAUGGUCACUGCUCUCCUCAGGGACUGGGACAAGGUGCUGCCGCCUGCCCACAGUUUUCCCAAGGAACACGUAC,0.326
ACUUAGAAAUACACGUAUGGUUAAUGUUCAGUCCAACAAACCACACACAGUAAAUGUUUAUUAAUAGUCAUGGUUCGUAUUUUAGGUGACUGAAAUUGCAUCAGUGAUCA,1.91
GGUAUUUUAAAGUUUAUGAUGAAGUAUUCUUUUUAUAUUCUUAAAUAUAAACUUGGAAAGGCAUUUAGCCUUGAUUUGUUAAAUCCUAAGGAUUUCCUGUAAGGUUUUUU,0.86
UGUAUGAUGUACAUUUUAGUUCUUAACUUUUUUUUAUGGUUUCUAAUAUGUAUGACCAAUGUAGCCAUUGCUUUAAAAUGUACCGUGUAAAUAUAAACACAUCCUAUCAG,6.12
UGUCUCCUAAAGGGUCGGUUUUGUUACGCAACACGAAGAAUGCUGUCUCAGCCUUGUUUUUCUAGAGUUGUGUUUUUCAGUCAUUUCUUCAAGAAAAACUAAAAUGAUUU,0.364
UCAUGUAUCAUCUAGCCAUGCACGAGCCUGGCAGGCAGGUGGGCGGUCUGCCUCCAGGGAUCCUGGGACCCUGAUGGCGAUCGUCCUGUCAUGCUGGGCCCUUCAUUUGA,0.458
CAGGCACAGGAUGCUGAAAGCUAUGUUACUAUUCUUAGUUUGUAAAUUGUCCUUUUGAUACCAUCAUCUUGUUUUCUUUUUGUAGGUAUAAAUAAAAACACUGUUGACAA,0.327

# Set 3 — technique: universal PBM; form: double-stranded DNA, one strand shown; sample: in vitro; tested at: not given; reading: higher = stronger binding
# Target: Sal-like protein 4, full length isoform B (SALL4, Homo sapiens, UniProt Q9UJQ4-2, residues 1-616)
# Setting: 8-mer, flanks averaged, mean of replicates
# Residues (chain): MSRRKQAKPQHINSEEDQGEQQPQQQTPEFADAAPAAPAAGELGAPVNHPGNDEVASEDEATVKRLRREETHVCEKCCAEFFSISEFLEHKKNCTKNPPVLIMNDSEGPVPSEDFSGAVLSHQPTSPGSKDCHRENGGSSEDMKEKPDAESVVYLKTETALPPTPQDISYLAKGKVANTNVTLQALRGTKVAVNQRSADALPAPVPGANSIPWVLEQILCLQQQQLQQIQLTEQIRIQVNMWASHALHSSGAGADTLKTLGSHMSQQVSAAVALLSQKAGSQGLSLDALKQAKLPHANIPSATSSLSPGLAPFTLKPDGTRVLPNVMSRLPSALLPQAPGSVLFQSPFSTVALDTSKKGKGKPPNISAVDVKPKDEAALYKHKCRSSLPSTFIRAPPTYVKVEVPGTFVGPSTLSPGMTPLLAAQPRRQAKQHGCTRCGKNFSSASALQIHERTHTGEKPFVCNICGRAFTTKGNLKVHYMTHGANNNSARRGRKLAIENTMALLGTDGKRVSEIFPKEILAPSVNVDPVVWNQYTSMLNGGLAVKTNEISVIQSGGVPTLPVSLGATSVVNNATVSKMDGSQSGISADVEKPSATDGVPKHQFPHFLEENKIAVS
Strand,E-score
ATCTGTCA,0.118
CAGGCTTA,-0.148
ATTCCATC,0.144
CGACACCG,-0.299
AATAGAAA,0.212
CTAACTCA,-0.00691
ATAAGAAT,0.342
GTCTGCGA,-0.169
GAGAGTTA,0.0473
AGACGCCT,-0.185
AGATCTCG,-0.129
ACCCTCTA,0.014
AGAATTCA,0.104
GCAGATCC,-0.11
CAAGCTTA,-0.139
GGCGATTA,0.0645
AGAGCATC,-0.0858
AAGTCGGC,-0.25

# Set 4 — technique: aptamer microarray, sandwich; form: DNA with 2'F-ANA; sample: in vitro; tested at: 200 nM; together with: Cy3 exosite-II aptamer, 400 nM; reading: higher = stronger binding; strand: GGTTGGTGTGGTTGG
# Target: Prothrombin, mature alpha-thrombin (F2, Homo sapiens, UniProt P00734)
# Setting: whole 15-mer aptamer, many near background
Modification,mean fluorescence intensity [a.u.]
2'F-ANA at 1 6 7 8 11 12 14 15,71.6
2'F-ANA at 4 8 9 11 12 14,95.9
2'F-ANA at 2 4 5 6 7 11 12 14,85.7
2'F-ANA at 1 8 9 10 11 12 13 14 15,52.8
2'F-ANA at 1 2 3 8 10 11 12 14,51.4
2'F-ANA at 1 5 8 9 11 12 13,75.7
2'F-ANA at 1 2 5 6 10 11 15,49.8
2'F-ANA at 2 3 4 5 10 12 13 14,45.8
2'F-ANA at 1 8 13,168
2'F-ANA at 2 3 4 9 10 11 12 13 14,176
2'F-ANA at 1 3 4 5 11 12 15,87.2
2'F-ANA at 2 5 6 7 9 12 13 14 15,47.1
2'F-ANA at 1 2 3 6 8 10 12 14 15,53.2
2'F-ANA at 5 7 13 14 15,80.8
2'F-ANA at 1 2 4 5 7 8 13 14 15,89
2'F-ANA at 1 5 7 9 12 13,71.2

# Set 5 — technique: RNA Bind-n-Seq; form: RNA; sample: in vitro; tested at: 200 nM; setting: whole 134-nt RNA, ends assumed; together with: 150 mM LiCl; relative to: input library; reading: higher = stronger binding; each molecule: 7-deaza-guanosine replaces G
# Target: Fragile X messenger ribonucleoprotein 1, C-terminal low-complexity region (Fmr1, Mus musculus, UniProt P35922)
# All sequences stand within: GGGAGUUCUACAGUCCGACGAUC … UGGAAUUCUCGGGUGUCAAGG
Strand,log2 enrichment
UGGGAGGUGGAUUUUGUUUAUUUUUUUAGCUCAUUUCCAGGGGUGGGGAUUUUUUUUUAAUAUGUGUCAUGAAUAAAGUUGUUUUUGAAA,0.13
ACCAUGCAGGUGGGCAUCUUUGGGAAGUGGGGCAAGGGGGGGAUAAGGAGGGGGGUAACACUUUGGGAACAGGUGGUCCCAGGUCGUUUC,1.3
UCCUGUGCUACACAUCGUAUGUACCGAAUCGGGGUUUUUGGGUUUUUGGGGUUUUUGGGAAAGUAUUAUGUUACGCCGUUCGGAUCUGCA,0.348
ACCAUGCAGGUGGGCAUCUUUGGGAAGUGAAACAAGGGGGGGAUAGGGAGGGGGGUAACACUUUGGGAACAGGUGGUCCCAGGUCGUUUC,1.27
UAACUUUAGAGGAGGAUCUAAUGGAUAUGGCAGUGGACGUGGAUUUGGGGAUGGCUAUAAUGGGUAUGGAGGAGGACCUGGAGGUGGCAA,0.45
AAGUCCUGUGCUACACAUCGUAUGUACCGAAUCGGGGCCCCGGCCCCGGCCCCGGGAAAGUAUUAUGUUACGCCGUUCGGAUCUGCACUU,-2.59
ACCAUGCAGGUGGGCAUCUUUGGGAAGUGGGGCGAGGGGGGGAUAGGGAGGGGGGUAACACUUUGGGAACAGGUGGUCCCAGGUCGUUUC,1.41
UCAAGUCCUGUGCUACACAUCGUAUGUACCGAAUCGGGGUGGGGAGGGGUGGGGAAAGUAUUAUGUUACGCCGUUCGGAUCUGCACUUCC,-0.566
GUCCUGUGCUACACAUCGUAUGUACCGAAUCGGCCCCCCGGGCCCCCCGGCCCCCCGGAAAGUAUUAUGUUACGCCGUUCGGAUCUGCAC,1.35
UGCUGUGUCACCGGGAACGCAAAGGCUGGGAAGAAGGCCCUUCUCAAAAUGGACUGGUGUUGCAGGGUGAGAAGCUGCCCCCUGACUUCA,-0.26
CUGUGCUACACAUCGUAUGUACCGAAUCGGGGUUUUUUUGGGGAAAAAAAGGGGUUUGGGGAAAGUAUUAUGUUACGCCGUUCGGAUCUG,-2.03

# A few entries again (set 5):
Strand,log2 enrichment
UCAAGUCCUGUGCUACACAUCGUAUGUACCGAAUCGGGGUGGGGAGGGGUGGGGAAAGUAUUAUGUUACGCCGUUCGGAUCUGCACUUCC,-0.566
ACCAUGCAGGUGGGCAUCUUUGGGAAGUGGGGCAAGGGGGGGAUAAGGAGGGGGGUAACACUUUGGGAACAGGUGGUCCCAGGUCGUUUC,1.3
UGGGAGGUGGAUUUUGUUUAUUUUUUUAGCUCAUUUCCAGGGGUGGGGAUUUUUUUUUAAUAUGUGUCAUGAAUAAAGUUGUUUUUGAAA,0.13
AAGUCCUGUGCUACACAUCGUAUGUACCGAAUCGGGGCCCCGGCCCCGGCCCCGGGAAAGUAUUAUGUUACGCCGUUCGGAUCUGCACUU,-2.59
CUGUGCUACACAUCGUAUGUACCGAAUCGGGGUUUUUUUGGGGAAAAAAAGGGGUUUGGGGAAAGUAUUAUGUUACGCCGUUCGGAUCUG,-2.03
ACCAUGCAGGUGGGCAUCUUUGGGAAGUGAAACAAGGGGGGGAUAGGGAGGGGGGUAACACUUUGGGAACAGGUGGUCCCAGGUCGUUUC,1.27
UAACUUUAGAGGAGGAUCUAAUGGAUAUGGCAGUGGACGUGGAUUUGGGGAUGGCUAUAAUGGGUAUGGAGGAGGACCUGGAGGUGGCAA,0.45
ACCAUGCAGGUGGGCAUCUUUGGGAAGUGGGGCGAGGGGGGGAUAGGGAGGGGGGUAACACUUUGGGAACAGGUGGUCCCAGGUCGUUUC,1.41
UGCUGUGUCACCGGGAACGCAAAGGCUGGGAAGAAGGCCCUUCUCAAAAUGGACUGGUGUUGCAGGGUGAGAAGCUGCCCCCUGACUUCA,-0.26
UCCUGUGCUACACAUCGUAUGUACCGAAUCGGGGUUUUUGGGUUUUUGGGGUUUUUGGGAAAGUAUUAUGUUACGCCGUUCGGAUCUGCA,0.348
GUCCUGUGCUACACAUCGUAUGUACCGAAUCGGCCCCCCGGGCCCCCCGGCCCCCCGGAAAGUAUUAUGUUACGCCGUUCGGAUCUGCAC,1.35
